Assay results from different studies.
F12: Coagulation factor XII (F12, Homo sapiens, UniProt P00748)
USP14: Ubiquitin carboxyl-terminal hydrolase 14 (USP14, Homo sapiens, UniProt P54578)
Rac GTPase-activating protein 1: Rac GTPase-activating protein 1 (Homo sapiens, UniProt Q9H0H5)
Rab GDP dissociation inhibitor beta with Rab1A: Rab GDP dissociation inhibitor beta, with Rab1A (Homo sapiens, UniProt P50395)
PTGS1: Prostaglandin G/H synthase 1 (PTGS1, Homo sapiens, UniProt P23219)

SMILES | target | test | system | setting | inhibition
Cc1ccc(CNC(=O)C(CCc2ccccc2)NC(=O)C(NC(=O)c2ccc(OCc3ccc(C(C)(C)C)cc3)cc2)C(C)O)cc1 (stereo not drawn) | F12 | enzyme activity, inhibitor | – | 100 µM | 36%
O=C(O)C(=O)N[C@H](Cc1ccc(O)cc1)C(=O)O | KDM4E (Homo sapiens, UniProt B2RXH2) | H3K9me3 demethylation, FDH-coupled | – | concentration not given | 8%
CC(NC1=C(C(=O)/C=C/c2ccccc2)C(=O)CC(C)(C)C1)C(=O)O (stereo not drawn) | USP14 | enzyme activity, inhibitor | – | 17 µM | 11%
Cc1nc2c(F)cc(-c3nc(Nc4ccc(CNC(=O)CCCCCCC(=O)NO)cc4)ncc3F)cc2n1C(C)C | Phosphatidylinositol 4,5-bisphosphate 3-kinase catalytic subunit alpha isoform, with p85 (PIK3CA, Homo sapiens, UniProt P42336, H1047R) | enzyme activity, inhibitor | – | 1 µM | 53%
COc1ccc2c(c1)-c1nc(N)sc1CC2 | Rac GTPase-activating protein 1 | enzyme activity, inhibitor, ADP detection | – | 20 µM | 97.5%
COCC(=O)N1CCc2cc(-c3csc(NC(=O)c4cc(OC)cc(OC)c4)n3)ccc21 | Cacna1c (Rattus norvegicus, UniProt P22002) | – | rat | 10 µM | 16%
O=C(O)C1Nc2ccc(Br)cc2C2C=CCC12 (stereo not drawn) | Rac GTPase-activating protein 1 | GAP activity, malachite green phosphate | – | concentration not given, orthogonal retest | 63.2%
O=C(CSc1nnc2c(n1)CCCC2)c1ccc(Cl)cc1 | USP14 | enzyme activity, inhibitor | – | 17 µM | 52%
CC(=O)c1ccc2c3c(cccc13)NC(C)=N2 | Rac GTPase-activating protein 1 | GAP activity, malachite green phosphate | – | concentration not given, orthogonal retest | 40.2%
C/C=C/C(=O)Nc1ccc2nc(NCCCCCN(C)C)nc(NCCCCCCN(C)C)c2c1 | SETD7 (Homo sapiens, UniProt Q8WTS6) | enzyme activity, inhibitor, radiometric | – | 10 µM | 17%
C=CCNC(=O)[C@H](CCc1ccccc1)NC(=O)[C@H](CC(=O)NCC(C)(C)C)NC(=O)CCc1ccccc1 | F12 | enzyme activity, inhibitor | – | 100 µM | 42%
N=C(N)NCCCC(NC(=O)C(CC(=O)NO)Cc1ccc2ccccc2c1)C(=O)NC(Cc1c[nH]c2ccccc12)C(=O)NC(CCC(=O)O)C(N)=O (stereo not drawn) | Collagenase 3 (MMP13, Homo sapiens, UniProt P45452) | – | – | 1 µM | 14%
CC(=O)Nc1cc(OC(C)=O)c2nonc2c1OC(C)=O | USP14 | enzyme activity, inhibitor | – | 17 µM | 64%
Cc1cc(N2CCOCC2)nc2cc(Cl)ccc12 | Rac GTPase-activating protein 1 | enzyme activity, inhibitor, ADP detection | – | 20 µM | 27.5%
COc1ccc(C[C@H](NC(=O)Cc2cccc(Oc3ccccc3)c2)C(=O)N[C@@H](Cc2c[nH]c3ccccc23)C(=O)NCc2ccc(C)cc2)cc1OC | F12 | enzyme activity, inhibitor | – | 100 µM | 34%
Cn1c(CNc2ccccc2Cl)nc2ccccc21 | Rac GTPase-activating protein 1 | enzyme activity, inhibitor, ADP detection | – | 20 µM | 33.4%
Nc1nonc1C(=O)NN=c1c(=O)c2ccccc2c1=O | USP14 | enzyme activity, inhibitor | – | 17 µM | 59%
C#CC[C@]1(O)C[C@H](C)N2CCc3cc(OCc4cc(C)cc(C)c4)c(OCc4cc(C)cc(C)c4)cc3[C@@H]2C1 (relative stereo) | Rab GDP dissociation inhibitor beta with Rab1A | GDI2-Rab1A interaction, NanoLuc complementation | – | 6.25 µM | 72.8%

SMILES | target | test | system | setting | inhibition
C=CCNC(=O)c1ccc2nc(-c3ccco3)c(-c3ccco3)nc2c1 | USP14 | enzyme activity, inhibitor | – | 17 µM | 62%
C=CC(=O)N1Cc2nc(-c3cc(-c4cc(Cl)cnc4Cl)c(F)cc3F)n(-c3ccncn3)c2C1 | 5'-AMP-activated protein kinase catalytic subunit alpha-1, with beta1, gamma3 (PRKAA1, Homo sapiens, UniProt Q13131) | kinome panel | – | 1 µM | 2.6%
COc1ccc(S(=O)(=O)N2CCc3ccccc3C2)cc1N1CCN(C(=O)c2ccc(F)cc2C(F)(F)F)CC1 | ADCYAP1R1 (Homo sapiens, UniProt P41586) | ligand displacement, radioligand | – | 1 µM | 3.8%
CC1Cc2ccccc2N1C(=O)CN1CCN(Cc2ccccc2)CC1 (stereo not drawn) | HTR7 (Homo sapiens, UniProt P34969) | radioligand binding | – | concentration not given, with: [3H]LSD | 67.9%
CCOC(=O)C(Sc1nnc(-c2c[nH]c3ccccc23)n1C)C(=O)OCC | Rac GTPase-activating protein 1 | GAP activity, malachite green phosphate | – | concentration not given, orthogonal retest | 51.4%
COc1ncc2nc(C)n(Cc3ncc(S(N)(=O)=O)cc3F)c2c1-c1ccccc1 | PTGS1 | enzyme activity, inhibitor | – | 10 µM, safety panel | 0.0998%
O=C(CSc1nnnn1-c1ccccc1)Nc1nsc(-c2ccccc2)n1 | srtA (Staphylococcus aureus, UniProt Q2FV99) | enzyme activity, inhibitor | – | 200 µM | 54.2%
Cc1cc(C)cc(COc2cc3c(cc2OCc2cc(C)cc(C)c2)[C@@H]2C[C@](O)(Cc4cn(Cc5ccc(F)cc5)nn4)C[C@H](C)N2CC3)c1 (relative stereo) | Rab GDP dissociation inhibitor beta with Rab1A | GDI2-Rab1A interaction, NanoLuc complementation | – | 6.25 µM | 86.6%
CO[C@@H](C)c1c(NC(=O)Nc2cnc(-n3nccn3)c(C(F)(F)F)c2)cnc2sc(C)nc12 | AVPR1A (Homo sapiens, UniProt P37288) | ligand displacement, radioligand | – | 10 µM | 10.8%
COc1ccc2c(c1)CCc1sc(N)nc1-2 | Rac GTPase-activating protein 1 | enzyme activity, inhibitor, ADP detection | – | 10 µM | 87.4%
COc1ccc(C#CC2=C[C@H]3C[C@@]4(OC(=O)C=C24)[C@H]2CC[C@H](C(OC)OC)N32)cc1 | PTGS1 | enzyme activity, inhibitor | – | 10 µM | 2%
CCOC(=O)C1=C(C)OC2(O)c3ccccc3C(=O)C12O (stereo not drawn) | USP14 | enzyme activity, inhibitor | – | 17 µM | 13%
Cc1ccc(CNC(=O)[C@H](CCc2ccccc2)NC(=O)[C@H](CC(=O)NCC(C)(C)C)NC(=O)CCc2cccc(F)c2)cc1 | Neutrophil elastase (ELANE, Homo sapiens, UniProt P08246) | enzyme activity, inhibitor | – | 100 µM | -5%
CN(C)C/C=C/C(=O)Nc1ccc2nc(NCCCCCN(C)C)nc(NCCCCCCN(C)C)c2c1 | SMYD3 (Homo sapiens, UniProt Q9H7B4) | enzyme activity, inhibitor, radiometric | – | 50 µM | 31%
CC(=O)c1cnc(N)nc1N1CC[C@H]1c1nn2ccc(Cl)c2c(=O)n1-c1ccccc1 | Oprk1 (Rattus norvegicus, UniProt P34975) | enzyme activity, inhibitor | – | 10 µM | 24%
O=C(Nc1ccc(C(F)F)cc1)[C@H](CC1CCCCC1)Nc1nn2c(=O)ccnc2s1 | Low molecular weight phosphotyrosine protein phosphatase, isoform B (ACP1, Homo sapiens, UniProt P24666) | enzyme activity, inhibitor | – | 10 µM, LMPTP-B isoform | -1%
c1ccc(-c2cnc3nonc3n2)cc1 | USP14 | enzyme activity, inhibitor | – | 17 µM | 8%
COc1cc(-c2cn(C)c(=O)c3cnccc23)cc(OC)c1CN(C)C | EP300 (Homo sapiens, UniProt Q09472) | – | – | 1 µM | 1.07%

Some of these lines once more:
SMILES | target | test | system | setting | inhibition
Cn1c(CNc2ccccc2Cl)nc2ccccc21 | Rac GTPase-activating protein 1 | enzyme activity, inhibitor, ADP detection | – | 20 µM | 33.4%
CCOC(=O)C(Sc1nnc(-c2c[nH]c3ccccc23)n1C)C(=O)OCC | Rac GTPase-activating protein 1 | GAP activity, malachite green phosphate | – | concentration not given, orthogonal retest | 51.4%
c1ccc(-c2cnc3nonc3n2)cc1 | USP14 | enzyme activity, inhibitor | – | 17 µM | 8%
